Published values pooled from the literature.
Lines come from different studies, so protocols differ. Numbers after ± are the reported error.

C[C@]1(O)C[C@@](N)(c2ccc(-c3nc4n(c3-c3ccccc3)COc3ccncc3-4)cc2)C1: “patients with Diarrhea TEAE” 23.5% (human, advanced or metastatic solid tumours; dose not given, all patients, any grade).
CN1CC[C@@H](c2c(O)cc(O)c3c(=O)cc(-c4ccc(C(F)(F)F)cc4Cl)oc23)[C@@H]1CO — result for “patients with adverse event”: 0% (measured: Dyspnea; AML; oral, 100 mg, intermittent dosing).
Under “abnormal ECG T wave incidence”, COc1cc2c(Oc3ccc4[nH]c(C)cc4c3F)ccnc2cc1OCC1(N)CC1 is recorded as 0% (sarcoma, recurrent or refractory, high-risk, paediatric; concentration not given, grade 3, whole group).
O=C1Nc2cc3[nH]nc(-c4ccncc4)c3cc2CN1Cc1ccccc1: “patients with diarrhoea” 67% (CTCAE v4.03; advanced solid tumour patients; intravenous, 7.2 mg/kg).
CCCCCCCCCCCCCCCC(=O)N[C@@H](CCC(=O)NCCCC[C@H](NC(=O)[C@H](CC(=O)O)NC(=O)[C@H](CO)NC(=O)[C@@H](NC(=O)[C@H](Cc1ccccc1)NC(=O)[C@@H](NC(=O)CNC(=O)[C@H](CCC(N)=O)NC(=O)[C@H](CO)NC(=O)[C@@H](N)Cc1c[nH]cn1)[C@@H](C)O)[C@@H](C)O)C(=O)N[C@@H](CO)C(=O)N[C@@H](CCC(=O)O)C(=O)N[C@@H](Cc1ccc(O)cc1)C(=O)N[C@@H](CC(C)C)C(=O)N[C@@H](CC(=O)O)C(=O)N[C@@H](CO)C(=O)N[C@@H](CCC(=O)O)C(=O)N[C@@H](CCCNC(=N)N)C(=O)N[C@@H](C)C(=O)N[C@@H](CCCNC(=N)N)C(=O)N[C@@H](CC(=O)O)C(=O)N[C@@H](Cc1ccccc1)C(=O)N[C@H](C(=O)N[C@@H](C)C(=O)N[C@@H](Cc1c[nH]c2ccccc12)C(=O)N[C@@H](CC(C)C)C(=O)N[C@@H](CCC(=O)O)C(=O)N[C@@H](C)C(=O)NCC(=O)NCC(=O)O)C(C)C)C(=O)O — result for “treatment-related adverse events”: 33.3% (human, CrCl < 20 mL/min; sc, 100 µg single dose).
CCCSc1ccc2nc(NC(=O)OC)[nH]c2c1 has an equilibrium solubility of 131 ± 24.2 µg/mL (simulated gastric fluid; 24 h, pH 1.2, room temperature).
Under “white blood cell count”, COc1ccc2nc3cc(Cl)ccc3c(Nc3cc(CN4CCCC4)c(O)c(CN4CCCC4)c3)c2n1 is recorded as 8.66 10⁹/L (mouse, blood; intraperitoneal, 28 mg/kg).
CO[C@H]1C[C@@H]2CC[C@@H](C)[C@@](O)(O2)C(=O)C(=O)N2CCCC[C@H]2C(=O)O[C@H]([C@H](C)C[C@@H]2CC[C@@H](OC(=O)NCCOCCOCCOCCOCCOCCOCCOCCOCCC(=O)N3CCc4cc(Cn5nc(-c6ccc7oc(N)nc7c6)c6c(N)ncnc65)ccc4C3)[C@H](OC)C2)C[C@@H](O)[C@H](C)/C=C(\C)[C@@H](O)[C@@H](OC)C(=O)[C@H](C)C[C@H](C)/C=C/C=C/C=C/1C — result for “deaths due to TEAEs”: 0% (phase 1 dose escalation; advanced solid tumour patients; intravenous, 16 mg weekly, any grade).
For Cc1cccc(Cn2nc(C3CC3)c3c(NC(=O)c4cnc5cc(OCCN6CCN(C)CC6)ccn45)cccc32)n1, “all-cause adverse events” read 14.3% (CTCAE v4.03, measured: maculopapular rash; patients with advanced solid tumours; oral, 400 mg, dose escalation, with: pembrolizumab 2 mg/kg IV every 3 weeks).
For CC(C)[C@@H](CS(=O)(=O)C(C)C)N1C(=O)[C@@](C)(CC(=O)O)C[C@H](c2cccc(Cl)c2)[C@H]1c1ccc(Cl)cc1, the tumour concentration was 177 nM (LC-MS/MS; athymic nude mice, PDX subcutaneous, tumour; oral, 10 mg/kg twice daily, 2 h after second dose).
O=C(Nc1ccccc1)C1CCN(C(=O)Oc2cccnc2)CC1 — result for “change in Incompetent-Proficient score”: 7.5 (Bond-Lader VAS; healthy women; oral, 60 mg; reference: pre-dose baseline, direction not given).
For CCc1ccc(CC/C=C/c2ccc3c(c2)C(=O)CC3)cc1, the Lymphocyte percentage was 79.6% (Sprague-Dawley rat, male; oral, 120 mg/kg/day, 14 days).
Under “patients with adverse event”, C[C@@H]1OC(=O)NN=C1c1ccc(-c2ccc(F)cc2)c(C(F)(F)F)c1 is recorded as 0% (phase I trial, measured: Ascites worst grade 2; human patients; 5 mg loading then 0.25 mg daily).
C[C@]1(CO)Cc2ncn(-c3ccc(C#N)c(Cl)c3)c2C(=O)O1 gave a Tmax of 2 h (human; oral, 10 mg, fed, single dose, median).
Under “Hypokalemia incidence, any grade”, CCN1CCN(Cc2ccc(Nc3ncc(F)c(-c4cc(F)c5nc6n(c5c4)[C@H](C)CCC6)n3)nc2)CC1 is recorded as 20.8% (advanced solid tumour patients; dose not given, Phase Ia monotherapy).
O[C@H]1CCCN[C@@H]1CCCn1cnc2c(Cl)c(Cl)ccc21 has an AUC(0-12) of 758 ng·h/mL (healthy CYP2D6 intermediate metabolizers, plasma; oral, 150 mg single dose).
COC[C@@H](CC(C)C)NC(=O)c1ccc(C)c(C)c1 — result for “PCE to total erythrocyte ratio”: 0.544 (Hsd:ICR (CD-1) mouse, female, bone marrow; oral, 1352 mg/kg, 24 h).
Under “patients with dehydration”, COc1ncnn2ccc(-c3cnc4nc(C)n(Cc5nnc([C@@H](C)F)o5)c4c3)c12 is recorded as 0% (human; oral, dose not given, grade 3).
For N=C(N)NCCC[C@@H](NC(=O)[C@@H](N)Cc1ccccc1)C(=O)N[C@@H](Cc1ccccc1)C(=O)N[C@@H](CCCCN)C(N)=O, “mean amount excreted in urine” read 333000 ng (LC-MS; human; 15 mg, 23.83 h).
The Papp of COc1ccc(C[C@@H]2NC(=O)[C@@H](CC(C)C)NC(=O)[C@H](C)NC(=O)[C@H](CC(C)C)NC(=O)[C@@H](CC(C)C)NC(=O)[C@H]3CCCN3C2=O)cc1 is reported as 200 ± 100 ×10⁻⁶ cm/s (LC/MS; horizontal lipid bilayer; 10 µM, 1 h, room temperature, 1% DMSO in PBS).
CC(C)C[C@H](NC(=O)[C@H](CCCCN)NC(=O)OCC1c2ccccc2-c2ccccc21)C(=O)N[C@H](C(=O)N[C@@H](Cc1ccccc1)C(=O)N[C@@H](Cc1ccccc1)C(=O)N[C@@H](CCCCN)C(=O)NCC(=O)N[C@@H](Cc1ccccc1)C(=O)N[C@@H](C)C(=O)N[C@@H](Cc1c[nH]c2ccccc12)C(=O)N[C@@H](CC(N)=O)C(=O)N[C@H](C(=O)N[C@H]1CSSC[C@@H](C(=O)N[C@@H](Cc2c[nH]cn2)C(=O)N[C@@H](CCCNC(=N)N)C(=O)N[C@@H](CCCNC(=N)N)C(=O)N[C@@H](C)C(=O)N[C@@H](CC(N)=O)C(N)=O)NC(=O)[C@H](C(C)C)NC(=O)[C@H](CCCNC(=N)N)NC(=O)[C@H](C(C)C)NC(=O)CNC(=O)[C@H](CC(N)=O)NC(=O)[C@H](CCCNC(=N)N)NC(=O)[C@H](Cc2ccc(O)cc2)NC(=O)[C@H](C(C)C)NC1=O)C(C)C)C(C)C has a total protein of 51.8 ± 1.07 g/L (ICR mouse, serum; ip, 5 mg/kg, 3 d dosing, blood day 5).
For CCN1[C@@H](C(=O)NC23CCC(C(=O)O)(CC2)CC3)[C@H](c2cccc(Cl)c2F)[C@]2(C(=O)Nc3cc(Cl)ccc32)C12CCCCC2, “oral mucositis incidence” read 0% (patients with advanced solid tumours; 200 mg).
C[C@H]1CN(C(=O)CC#N)[C@]12CCN(c1ncnc3[nH]ccc13)C2: “AUC at NOAEL” 21 ng·h/mL (minipig, female; dermal, 12 mg/kg repeated, 1 months).
Under “ALT increased, any grade”, CC(C)(O)c1cc(Nc2cc(Oc3cn(C4CC4)nc3C3CCOCC3)ccn2)ccn1 is recorded as 0% (grade 4 glioma expansion cohort; oral, 50 mg twice daily).
Under “nervous system disorder TEAE”, Cn1c(-c2ccc(C(N)=O)cc2F)nnc1C(C)(C)Oc1c(F)cc(Cl)cc1F is recorded as 16.7% (human; oral, 30 mg, single ascending dose).
